Published values collected from several papers.
Compare with care: the assays were run in different laboratories. Values joined by “and” are separate records of one study, mostly repeats; a detail may differ. ± marks the error that the study gave.

Cl.NC(CO)CCc1ccccc1Cl (racemic)  storage stability (-20 °C): stable
COc1ccnc(C[S+]([O-])c2nc3cc(-n4cccc4)ccc3[nH]2)c1C (stereo not shown)  Vz/F (male Sprague Dawley rats, plasma; oral, 5 mg/kg ilaprazole racemate): 76.3 ± 112 L/kg
NC12CNCCNCC(NCc3ccc(CNC(=O)CCCC(=O)NCc4ccc(-c5nncnn5)cc4)cc3)(CNCCNC1)CNCCNC2.[64Cu+2]  mean absorbed dose (OLINDA dosimetry; gallbladder wall; pretargeting, 24-h interval): 0.0393 rad/mCi
[11CH3]c1ccc2nc(C3CCC3)n(-c3ccc4[nH]ncc4c3)c2n1  uptake ratio (ddY mouse, blood; relative to: 1 min over 60 min): 2.9
CCCCCCCCCCCCCCCC(=O)OC[C@H]1O[C@@H](n2cc(F)c(N)nc2=O)CS1  decline (rabbit plasma; 1 µM, 90 min, 37 °C; relative to: 0 min): 92%
COCCOCCOCCOCCC(=O)NCc1cc(CNC(=O)CCOCCOCCOCCOC)cc(-c2cc3cc4nc(c(-c5ccc(CCC(=O)O)cc5)c5[nH]c(cc6nc(c(OC)c2[nH]3)CC6(C)C)cc5-c2cc(CNC(=O)CCOCCOCCOCCOC)cc(CNC(=O)CCOCCOCCOCCOC)c2)CC4(C)C)c1  kic^−1 (water with 5% DMF; room temperature): 6 ns
NC(=O)[C@H](Cc1ccccc1)N[11C](=O)OCc1ccccc1  intact tracer (male Wistar rats, plasma; intravenous, 15 min): 15% and 15.2%
COc1cc([O-])c(C=NCCCN(C)CCN(C)CCCN=Cc2c([O-])cc(OC)cc2OC)c(OC)c1.[67Ga+3]  tissue uptake ratio (rat; intravenous, 2 h; relative to: heart over lung): 1.58 ± 0.08
CC(C)c1cnc(-c2cc(Cl)ccc2F)cc1Nc1ccncc1C(=O)NC(CO)CO  patients with treatment-related adverse event (monotherapy, item: nausea; human patients; oral, dose not given, grade 5, phase I A): 0%
C[Si]1(C[C@@H](CN)CC(=O)O)CCCC1  brain Cmax (Sprague-Dawley rat, male, brain; oral, 100 mg/kg, estimated as Cmax x Kp): 8 µM
Cc1ccc(OCC(=O)N(Cc2cccs2)c2ccn[nH]2)cc1  dose-normalised AUC(0-last) (beagle dog, male, plasma; oral gavage, 10 mg/kg): 11.9 ng·h/mL/mg/kg
C=CC(=O)Nc1cc(Nc2nccc(-c3cn(C4CC4)c4ccccc34)n2)c(OC)cc1NC  excreted amount (radio-HPLC; human male, feces; oral, 110 mg, 48 to 96 h, sample holds 20.06% dose; relative to: dose): 0.17%
CC(C)[C@H](NC(=O)[C@@H]1CCCN1C(=O)[C@H](CCCNC(=N)N)NC(=O)[C@H](CS)NC(=O)[C@H](Cc1c[nH]c2ccccc12)NC(=O)[C@H](CCCNC(=N)N)NC(=O)[C@@H](Cc1ccccc1)NC(=O)[C@H](Cc1c[nH]cn1)NC(=O)[C@H](CCC(=O)O)NC(=O)[C@H](CS)NC(=O)[C@H](CS)NC(=O)[C@@H]1CC(=O)N[C@@H](CCCNC(=N)N)C(=O)NCC(=O)N[C@@H](CC(=O)O)C(=O)N[C@H](Cc2ccc(O)cc2)C(=O)N1)C(N)=O [technetium-99m labelled]  tissue uptake (C57 mouse, female, B16/F1 melanoma, brain; intravenous, 0.037 MBq, 24 h): 0.02 ± 0.02 %ID/g
O=C(CCc1ccc(CNC(C(=O)OC2CCCC2)C2CCCCC2)cn1)NO (stereo not shown)  half-life (human, plasma; oral, 20 mg, single dose, geometric mean): 0.343 h
COC(=O)c1ccc(-c2cn(Cc3cc(Cl)ccc3O[11CH3])nn2)cc1  distribution volume (VT) (PET one-tissue compartment model; rhesus monkey, basal ganglia; dose not given): 0.585 mL/cm³
Cn1c(=O)oc2ccc(-c3ccc(CC(C#N)NC(=O)C4CNCCCO4)c(F)c3)cc21 (stereo not shown)  Tmax (human, plasma; 10 to 40 mg once daily for 28 days): 1.5 h
CC(C)C1=CC2=CCC3C(C)(C(=O)OCCC[N+](C)(C)C)CCCC3(C)C2CC1 (stereo not shown)  HC50 (mouse red blood cells; 1 h, 37 °C): 160 µg/mL
COc1ccc(/N=N/c2ccc(OC[C@@H](O)CNC(C)C)cc2)cc1  n-pi* absorption maximum, cis (UV/Vis spectroscopy; Epac buffer with 0.5 % DMSO; 50 µM): 440 nm
Cc1ccccc1/N=N/c1ccc(/N=N/c2c(O)ccc3ccccc23)c(C)c1  measured concentration (extracted rat blood QC samples; 0.2 µg/L, 8 h, room temperature, short-term stability): 0.227 µg/L
CC(=O)N[C@H](CC(=O)O)C(=O)N[C@H](Cc1c[nH]c2ccccc12)C(=O)N[C@H](Cc1ccccc1)C(=O)N[C@H](CCCCN)C(=O)N[C@H](C)C(=O)N[C@H](Cc1ccccc1)C(=O)N[C@H](Cc1ccc(O)cc1)C(=O)N[C@H](CC(=O)O)C(=O)N[C@H](CCCCN)C(=O)N[C@@H](C(=O)N[C@H](C)C(=O)N[C@H](CCC(=O)O)C(=O)N[C@H](CCCCN)C(=O)N[C@H](Cc1ccccc1)C(=O)N[C@H](CCCCN)C(=O)N[C@H](CCC(=O)O)C(=O)N[C@H](C)C(=O)N[C@H](Cc1ccccc1)C(N)=O)C(C)C  AUC(0-t) (statin-treated high-risk CHD women, plasma; oral, 500 mg daily, day 1, 0 to 2 h, mean, outlier excluded): 108 ng·h/mL
O=c1[nH]c(=O)n(C2OC(CO)C(O)C2O)cc1-n1nnc2c1CCC1C(CO)C1CC2 (mixture of isomers)  fluorescence quantum yield: 1.1%
N#Cc1cnc2cc(OCC3CCNCC3)c(F)cc2c1Nc1cc(F)c(OCc2cccc(Cl)n2)cc1Cl  MRT (male beagle dog, plasma; oral, 5 mg/kg): 8.41 h
CC(C)C[C@@H](NC(=O)[C@H](NC(=O)[C@H]1CCCN1)[C@H](C)O)C(=O)N[C@H](Cc1c[nH]cn1)C(=O)N[C@@H](C(=O)N[C@H](Cc1c[nH]cn1)C(=O)N[C@H](CC(N)=O)C(=O)N[C@H](CCCNC(=N)N)C(=O)N[C@H](CCCNC(=N)N)C(=O)N[C@H](CCCNC(=N)N)C(=O)N[C@H](CCCNC(=N)N)C(=O)N[C@H](CCCNC(=N)N)C(N)=O)[C@H](C)O  MRT (beagle dog, plasma; oral, 20 mg/kg, single dose): 40 h
CC[C@@H](C)[C@@H](NC(=O)[C@@H](C)NC(=O)[C@@H](CCCCN)NC(=O)[C@@H](CC(C)C)NC(=O)[C@@H](C)NC(=O)[C@H](NC(=O)[C@@H](CCCCN)NC(=O)[C@@H](CC(C)C)NC(=O)[C@H](NC(=O)[C@@H](CCCCN)NC(=O)[C@@H](CCCCN)NC(=O)[C@@H](CCCCN)NC(=O)[C@@H](C)NC(=O)[C@@H](CCCCN)NC(=O)[C@@H](CO)NC(=O)[C@@H](Cc1ccccc1)NC(=O)[C@H](NC(=O)[C@@H](CCCCN)NC(=O)[C@@H](CC(C)C)NC(=O)[C@@H](Cc1ccccc1)NC(=O)[C@@H](CO)NC(=O)[C@@H](CCCCN)NC(=O)[C@@H](Cc1c[nH]c2ccccc12)NC(=O)[C@@H](CCCCN)NC(C)=O)[C@H](C)O)C(C)C)[C@H](C)O)C(=O)N[C@H](CO)C(=O)N[C@H](CCCCN)C(N)=O  helical content (circular dichroism; 50% trifluoroethanol buffer; 5 °C; relative to: reference peptide in TFE): 78%
CC[N+]1(Cc2ccc3ccc(O)c(C#N)c3n2)CCCC1CNC(=O)c1cc(S(N)(=O)=O)ccc1OC (stereo not shown)  ε365 (KMOPS buffer; 0.1 mM, pH 7.2): 6500 M⁻¹ cm⁻¹
COc1ccc(-c2csc(N/N=C(\C)c3cc(O)cc(O)c3)n2)cc1  concentration after storage (LC-MS/MS; rat plasma; 1000 ng/mL, freeze-thaw 5 cycles at -70 °C): 898 ng/mL
N=C(N)NCCC[C@@H]1NC(=O)[C@H](Cc2c[nH]c3ccccc23)NC(=O)[C@@H](CC2CCCCC2)NC(=O)[C@@H]2CCCN2C(=O)[C@@H](NC(=O)CCc2ccccc2)CCCNC1=O  apparent distributional clearance (C57BL/6J mice, brain; oral, 1 mg/kg, two-compartment model): < 0.001 ng/(min·ng/g)
COc1ccc(NC(=O)[C@H](CCCCN)NC(=O)c2cc(NC(=O)[C@H](CCCCN)NC(=O)c3cc(NC(=O)[C@H](CCCCN)NC(=O)c4cc(N)ccc4OC)ccc3OC)ccc2OC)cc1C(N)=O  association midpoint concentration (UV-vis λmax shift; TBS; pH 7.4, monomer-hexamer fit, added: NaCl 0.15 M): 0.08 mM
CCN(CC)c1ccc2c(-c3ccccc3C(=O)OCCOCCOCC[18F])c3ccc(=[N+](CC)CC)cc-3oc2c1  liver radioactivity (PET imaging; rat, liver; dose not given, 55 min post injection; relative to: value at 5 min): 30 to 35%
COC(=O)c1ccc2c(c1)NC(=O)/C2=C(\Nc1ccc2c(c1)CCN2C(=O)CN1CCOCC1)c1ccccc1  Papp A→B (Caco-2; 20 µM, 2 h): 0.04 ×10⁻⁶ cm/s
CCCC[C@H](NC(=O)CNC(=O)CNC(=O)CN1CCN(CC(=O)O)CCN(CC(=O)O)CCN(CC(=O)O)CC1)C(=O)N[C@H]1CC(=O)NCCCC[C@@H](C(N)=O)NC(=O)[C@H](Cc2c[nH]c3ccccc23)NC(=O)[C@H](CCCNC(=N)N)NC(=O)[C@@H](Cc2ccccc2)NC(=O)[C@H](Cc2c[nH]cn2)NC1=O [copper-64 labelled]  tissue uptake (female C57 mouse, B16/F1 melanoma, liver; intravenous, 0.037 MBq, 2 h): 10.3 ± 1.18 %ID/g
